# Assay results gathered from unrelated publications.
# A part holds a random share of what one study measured.

# Series 1 — method: protein binding microarray; form: double-stranded DNA, one strand shown; matrix: in vitro; concentration: not given; baseline: not given; reading: higher = stronger binding
# Target: Histone acetyltransferase KAT6A, both winged helices, GST fusion (KAT6A, Homo sapiens, UniProt Q92794, residues 1-181)
# Notes: 8-mer, flanks averaged, mean of 2 arrays, mostly near background
# Construct (chain): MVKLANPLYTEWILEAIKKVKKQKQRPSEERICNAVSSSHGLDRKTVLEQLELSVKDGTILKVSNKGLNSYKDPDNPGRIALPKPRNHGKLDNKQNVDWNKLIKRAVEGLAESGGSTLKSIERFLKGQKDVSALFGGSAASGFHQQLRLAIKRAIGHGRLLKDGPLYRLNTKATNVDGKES
Strand,E-score
GGTCCGCA,0.219
ATGGGATA,-0.168
AAAGCATC,0.0667
GAGCGGGC,0.289
TCAGTGCA,-0.173
ATTTGGGA,-0.162
AAACCGGG,0.148
CGGGATAA,0.151

# Series 2 — method: competition protein-binding microarray; form: double-stranded DNA, one strand shown; matrix: in vitro; concentration: 2 µM; added: Pho4 competitor, 0.05 µM; reading: higher = stronger binding; all sequences stand within: … GTCTTGATTCGCTTGACGCTGCTG
# Target: Centromere-binding protein 1, full length, His-tagged (CBF1, Saccharomyces cerevisiae, UniProt P17106, residues 1-351)
# Chain of UniProt P17106 (whole entry, looked up): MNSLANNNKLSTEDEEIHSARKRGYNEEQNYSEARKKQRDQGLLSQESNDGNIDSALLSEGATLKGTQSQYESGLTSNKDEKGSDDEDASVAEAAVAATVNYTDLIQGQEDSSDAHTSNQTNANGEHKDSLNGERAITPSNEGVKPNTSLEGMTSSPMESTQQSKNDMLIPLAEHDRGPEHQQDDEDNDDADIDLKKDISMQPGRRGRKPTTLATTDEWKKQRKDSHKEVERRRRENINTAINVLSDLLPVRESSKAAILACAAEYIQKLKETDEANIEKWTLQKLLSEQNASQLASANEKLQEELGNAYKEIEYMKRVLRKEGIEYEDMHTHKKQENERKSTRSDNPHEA
# Notes: whole 60-bp probe, lowest competitor level
Strand,fluorescence intensity [a.u.]
GTTACGTTCTGTGGTGGCGTGCCGACTTCCAAGTCC,104
ATCGATGCTTTTGGCCACATGGGAGCCATATGCCAT,90.8
TGAAGAAGGGTAAATCTCGTGATGGAAATGTTCCTG,466
CTTTCCCGATCTTGATGAGTGGGTGTAGCACATTTG,67.1
ACCGCTGAGGCAAGTACCGTGCAAAATGATGTGAGT,88
GAGACGGACGAGAGTGACGTGCTTTGGGTTGAGACG,76.1
AAGCATATGCTGTTTATCGTGCTAACAAGGCGGTAT,73.5
AGGTTTTGCTAAATCTATGTGACAGTAATGACCAGG,95.3

# Series 3 — action: inhibitor; concentration: 20 µM
# Target: Replicase polyprotein 1ab, nsp13 helicase (rep, Severe acute respiratory syndrome coronavirus 2, UniProt P0DTD1)
SMILES,inhibition
Cc1ccnc2c1NC(=O)c1cccnc1N2C1CC1,5.68%
Clc1ccc(C2(c3ccc(-c4cn[nH]c4)cc3)CCNCC2)cc1,10.5%
COc1ccc(Cn2ccc3ccc(C(=O)NO)cc32)cc1,7.6%
NCCCCN(Cc1nc2ccccc2[nH]1)[C@H]1CCCc2cccnc21,-3.14%
CN1CCN(CCCN2c3ccccc3Sc3ccc(S(=O)(=O)N(C)C)cc32)CC1,13.4%
CC(C)Oc1ccc(-c2nc(-c3cccc4c3CC[C@@H]4NCCO)no2)cc1C#N,-0.91%
CN(C)CCN1C(=O)c2cccc3cc(NC(N)=O)cc(c23)C1=O,21.5%
Cn1c(=O)c2c(ncn2CC(O)CO)n(C)c1=O (centres unmarked),-1.68%
C[C@@H](CN1CCC(Cc2ccccc2)CC1)[C@@H](O)c1ccc(O)cc1,5.28%
O=C1CC2(CCCC2)CC(=O)N1CCCCN1CCN(c2ncccn2)CC1,5.54%
C[C@]12C/C(=C/O)C(=O)C[C@@H]1CC[C@@H]1[C@@H]2CC[C@@]2(C)[C@H]1CC[C@]2(C)O,1.71%
CC(C)CCC[C@@H](C)[C@H]1CC[C@H]2[C@@H]3CCC4=CC(=NO)CC[C@]4(C)[C@H]3CC[C@]12C,5.63%
CC(C)(C)c1ccc(C(O)CCCN2CCC(C(O)(c3ccccc3)c3ccccc3)CC2)cc1 (centres unmarked),4.43%
Cc1ccc(Cl)c(OCC(O)CNC(C)(C)C)c1 (centres unmarked),-10.4%
COc1ccc2[nH]c([S+]([O-])Cc3ncc(C)c(OC)c3C)nc2c1 (centres unmarked),0.93%
Cc1c(O)c(=O)ccn1C,8.38%
CC(C(=O)O)c1cccc(Oc2ccccc2)c1 (centres unmarked),1.01%
COc1ccc(/C=C/CCCCOc2ccc(C(=O)c3cccc(C(=O)O)c3)cc2CCC(=O)O)cc1,13.4%
COc1cc2ncnc(Nc3ccc(O)c(Br)c3)c2cc1OC,1.84%
N#Cc1cc(CN2CCC(Nc3ncnc4sc(Cl)cc34)CC2)ccc1F,8.67%
O=Nc1c(-c2c(O)[nH]c3ccccc23)[nH]c2ccccc12,4.6%
Clc1cccc(Nc2nnc(-c3ccccc3)c3ccccc23)c1,-4.56%
CCCCCCCCCCCCCCCC=O,0.73%
O=C(NCc1ccncc1)C12CC3CC(C1)CC(c1ccc(Cl)cc1)(C3)C2,-2.15%
O=C1C(=Cc2cccnc2)C(=O)c2ccccc21,97.9%

# Series 4 — method: RNAcompete; form: RNA; matrix: in vitro; concentration: 20 nM; notes: 7-mer, probes averaged, single round; baseline: mean of 7-mers; reading: higher = stronger binding
# Target: PABPC1L2, full length, GST fusion (mouse, UniProt A0ABA7IW68)
# Target sequence (chain): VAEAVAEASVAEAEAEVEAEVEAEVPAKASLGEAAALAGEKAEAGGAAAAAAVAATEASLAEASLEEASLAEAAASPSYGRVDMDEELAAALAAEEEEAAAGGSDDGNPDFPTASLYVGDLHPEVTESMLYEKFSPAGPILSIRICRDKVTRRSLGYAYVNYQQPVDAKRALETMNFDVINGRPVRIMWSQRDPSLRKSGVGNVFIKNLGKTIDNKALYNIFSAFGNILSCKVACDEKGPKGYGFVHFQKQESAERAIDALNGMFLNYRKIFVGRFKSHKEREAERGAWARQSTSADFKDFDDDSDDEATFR
Strand,7-mer Z-score
CCUUGCC,-0.42
GCCUAGA,-0.0264
CCCCCGC,-0.57
AUCGUUC,-0.418
GGGCACC,0.24
ACGUCUU,-0.371
UUUUGUA,-0.173
UUAUUCC,-0.34

# Series 5 — organism: SARS-CoV-2; effect on: cytopathic effect; cells: Vero E6; concentration: 10 µM
Compound,inhibition [%]
COc1ccc2[nH]c([S+]([O-])Cc3ncc(C)c(OC)c3C)nc2n1 (centres unmarked),-5.5
CN(CCCN1c2ccccc2CCc2ccccc21)CC(=O)c1ccc(Cl)cc1,-0.02
CCOC(=O)c1c(N)sc(-c2ccccc2)c1C,3.7
CNC(=O)ON(C(C)=O)C(=O)NC,-2.6

# Series 6 — cell line: HEK-293T/ACE2; concentration: concentration not given; time: 16 (unit not given); baseline: vehicle
Compound,viability
O=C1C(O)=C([C@H]2CC[C@H](c3ccc(Cl)cc3)CC2)C(=O)c2ccccc21,92.7%
CN1CCc2nc(C(=O)N[C@@H]3C[C@@H](C(=O)N(C)C)CC[C@@H]3NC(=O)C(=O)Nc3ccc(Cl)cn3)sc2C1,51.8%
O=c1ccc2ccc(OCCCCN3CCN(c4cccc5sccc45)CC3)cc2[nH]1,81.2%

# Excerpt of the above (series 2):
Strand,fluorescence intensity [a.u.]
GTTACGTTCTGTGGTGGCGTGCCGACTTCCAAGTCC,104
ATCGATGCTTTTGGCCACATGGGAGCCATATGCCAT,90.8
TGAAGAAGGGTAAATCTCGTGATGGAAATGTTCCTG,466
CTTTCCCGATCTTGATGAGTGGGTGTAGCACATTTG,67.1
ACCGCTGAGGCAAGTACCGTGCAAAATGATGTGAGT,88
GAGACGGACGAGAGTGACGTGCTTTGGGTTGAGACG,76.1
AAGCATATGCTGTTTATCGTGCTAACAAGGCGGTAT,73.5
AGGTTTTGCTAAATCTATGTGACAGTAATGACCAGG,95.3
